Experimental data pooled from the literature.
Each line is one published result; not all experiments were run side by side. ± gives the spread as reported.
ache: Acetylcholinesterase (ache, Electrophorus electricus, UniProt O42275)
Sequence of UniProt O42275 (whole entry, looked up): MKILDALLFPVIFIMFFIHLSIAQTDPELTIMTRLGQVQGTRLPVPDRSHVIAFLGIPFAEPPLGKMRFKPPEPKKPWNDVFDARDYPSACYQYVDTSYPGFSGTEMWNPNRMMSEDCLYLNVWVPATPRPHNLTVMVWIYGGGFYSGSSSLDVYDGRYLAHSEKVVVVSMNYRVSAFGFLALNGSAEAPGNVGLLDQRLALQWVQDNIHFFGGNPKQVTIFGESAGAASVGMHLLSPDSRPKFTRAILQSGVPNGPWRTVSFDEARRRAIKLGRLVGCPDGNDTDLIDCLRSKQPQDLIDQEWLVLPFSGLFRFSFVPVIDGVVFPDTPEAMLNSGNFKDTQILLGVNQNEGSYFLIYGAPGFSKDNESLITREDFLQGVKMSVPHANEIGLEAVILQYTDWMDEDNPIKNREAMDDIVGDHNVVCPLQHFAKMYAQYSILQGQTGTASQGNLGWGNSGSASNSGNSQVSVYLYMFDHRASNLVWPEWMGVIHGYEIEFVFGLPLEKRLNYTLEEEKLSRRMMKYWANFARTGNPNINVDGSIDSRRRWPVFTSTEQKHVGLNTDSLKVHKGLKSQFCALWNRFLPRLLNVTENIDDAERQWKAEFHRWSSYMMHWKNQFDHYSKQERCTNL
Oprk1: Kappa-type opioid receptor (Oprk1, Rattus norvegicus, UniProt P34975)
Sequence of UniProt P0C0V0 (whole entry, unmodified, looked up): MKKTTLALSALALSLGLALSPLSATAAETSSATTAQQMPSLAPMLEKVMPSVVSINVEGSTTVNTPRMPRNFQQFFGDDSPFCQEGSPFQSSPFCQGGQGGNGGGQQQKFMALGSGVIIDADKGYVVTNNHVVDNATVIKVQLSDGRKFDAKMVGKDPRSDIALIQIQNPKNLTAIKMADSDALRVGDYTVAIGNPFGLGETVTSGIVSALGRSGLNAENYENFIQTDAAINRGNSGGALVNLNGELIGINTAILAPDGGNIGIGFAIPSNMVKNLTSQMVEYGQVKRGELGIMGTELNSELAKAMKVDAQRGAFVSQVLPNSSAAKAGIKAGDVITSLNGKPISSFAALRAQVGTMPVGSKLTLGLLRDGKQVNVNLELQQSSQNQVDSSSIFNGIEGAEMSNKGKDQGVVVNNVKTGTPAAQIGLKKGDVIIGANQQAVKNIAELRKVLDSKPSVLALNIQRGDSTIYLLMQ
Sequence of UniProt P34975 (whole entry, looked up): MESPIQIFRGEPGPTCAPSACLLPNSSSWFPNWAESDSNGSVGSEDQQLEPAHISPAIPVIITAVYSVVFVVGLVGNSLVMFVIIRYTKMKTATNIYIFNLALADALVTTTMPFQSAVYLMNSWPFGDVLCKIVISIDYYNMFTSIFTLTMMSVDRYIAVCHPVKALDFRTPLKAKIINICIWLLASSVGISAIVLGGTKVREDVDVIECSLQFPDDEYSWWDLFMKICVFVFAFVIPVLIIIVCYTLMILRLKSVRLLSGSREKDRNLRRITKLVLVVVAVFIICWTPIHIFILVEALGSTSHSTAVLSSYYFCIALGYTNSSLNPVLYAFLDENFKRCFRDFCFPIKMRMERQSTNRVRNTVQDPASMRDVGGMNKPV
Sequence of UniProt P81183 (whole entry, unmodified, looked up): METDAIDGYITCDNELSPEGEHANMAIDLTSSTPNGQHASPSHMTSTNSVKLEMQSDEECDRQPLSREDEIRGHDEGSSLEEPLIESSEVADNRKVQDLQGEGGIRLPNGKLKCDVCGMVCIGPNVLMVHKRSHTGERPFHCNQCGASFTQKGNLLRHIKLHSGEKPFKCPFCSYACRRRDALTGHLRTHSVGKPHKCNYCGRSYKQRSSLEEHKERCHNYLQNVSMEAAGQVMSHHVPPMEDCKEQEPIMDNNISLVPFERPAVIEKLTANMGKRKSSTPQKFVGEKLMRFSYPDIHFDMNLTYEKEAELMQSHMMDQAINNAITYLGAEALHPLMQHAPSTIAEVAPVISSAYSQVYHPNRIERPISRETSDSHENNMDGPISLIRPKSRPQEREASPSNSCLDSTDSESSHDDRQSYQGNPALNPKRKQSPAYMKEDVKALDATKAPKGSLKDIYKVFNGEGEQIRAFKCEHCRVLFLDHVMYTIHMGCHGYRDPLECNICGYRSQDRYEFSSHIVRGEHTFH
Sequence of UniProt P34969 (whole entry, looked up): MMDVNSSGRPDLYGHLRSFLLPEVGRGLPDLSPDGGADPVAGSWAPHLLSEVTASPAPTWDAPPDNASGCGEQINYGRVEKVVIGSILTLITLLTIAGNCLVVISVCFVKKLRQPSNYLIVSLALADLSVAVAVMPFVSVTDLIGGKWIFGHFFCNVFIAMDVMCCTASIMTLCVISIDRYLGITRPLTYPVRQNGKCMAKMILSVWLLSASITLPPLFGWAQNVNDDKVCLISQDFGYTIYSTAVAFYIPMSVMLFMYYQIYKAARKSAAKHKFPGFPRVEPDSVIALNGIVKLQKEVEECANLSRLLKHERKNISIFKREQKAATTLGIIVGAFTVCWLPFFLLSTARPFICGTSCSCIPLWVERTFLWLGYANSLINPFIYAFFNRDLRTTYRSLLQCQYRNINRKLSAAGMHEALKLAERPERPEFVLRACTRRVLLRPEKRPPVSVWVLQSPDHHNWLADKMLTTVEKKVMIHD
Sequence of UniProt Q16762 (whole entry, looked up): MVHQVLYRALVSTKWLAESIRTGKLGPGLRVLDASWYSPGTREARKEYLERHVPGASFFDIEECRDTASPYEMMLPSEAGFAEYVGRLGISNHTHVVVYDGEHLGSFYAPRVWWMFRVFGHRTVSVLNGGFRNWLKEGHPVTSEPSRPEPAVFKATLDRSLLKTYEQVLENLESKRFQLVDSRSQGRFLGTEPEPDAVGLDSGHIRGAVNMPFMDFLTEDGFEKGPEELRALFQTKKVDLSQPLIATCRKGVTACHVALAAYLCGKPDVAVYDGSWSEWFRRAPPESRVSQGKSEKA
Sequence of UniProt Q8C7D2 (whole entry, unmodified, looked up): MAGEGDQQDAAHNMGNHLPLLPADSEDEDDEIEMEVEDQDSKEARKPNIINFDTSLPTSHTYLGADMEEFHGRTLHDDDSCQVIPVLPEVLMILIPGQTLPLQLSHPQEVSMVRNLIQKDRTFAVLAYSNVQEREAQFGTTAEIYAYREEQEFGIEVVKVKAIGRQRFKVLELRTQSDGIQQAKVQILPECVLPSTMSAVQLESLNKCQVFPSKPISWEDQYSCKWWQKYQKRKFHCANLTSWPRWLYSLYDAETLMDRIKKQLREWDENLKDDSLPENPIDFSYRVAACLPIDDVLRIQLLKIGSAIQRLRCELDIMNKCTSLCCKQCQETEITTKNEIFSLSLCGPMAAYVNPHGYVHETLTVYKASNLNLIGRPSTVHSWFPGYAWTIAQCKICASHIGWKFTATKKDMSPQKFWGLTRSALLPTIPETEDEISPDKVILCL
Sequence of UniProt A0R016 (whole entry, looked up): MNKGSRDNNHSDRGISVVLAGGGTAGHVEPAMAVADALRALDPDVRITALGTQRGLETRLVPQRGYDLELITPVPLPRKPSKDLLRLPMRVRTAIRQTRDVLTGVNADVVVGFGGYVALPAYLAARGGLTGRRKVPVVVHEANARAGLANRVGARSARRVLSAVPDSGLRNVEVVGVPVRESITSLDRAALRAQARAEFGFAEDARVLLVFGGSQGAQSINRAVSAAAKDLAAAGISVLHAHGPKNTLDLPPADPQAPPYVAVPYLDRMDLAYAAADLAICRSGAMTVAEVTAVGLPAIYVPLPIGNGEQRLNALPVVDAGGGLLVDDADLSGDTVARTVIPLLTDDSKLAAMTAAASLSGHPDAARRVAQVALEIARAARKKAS
Sequence of UniProt P56817 (whole entry, looked up): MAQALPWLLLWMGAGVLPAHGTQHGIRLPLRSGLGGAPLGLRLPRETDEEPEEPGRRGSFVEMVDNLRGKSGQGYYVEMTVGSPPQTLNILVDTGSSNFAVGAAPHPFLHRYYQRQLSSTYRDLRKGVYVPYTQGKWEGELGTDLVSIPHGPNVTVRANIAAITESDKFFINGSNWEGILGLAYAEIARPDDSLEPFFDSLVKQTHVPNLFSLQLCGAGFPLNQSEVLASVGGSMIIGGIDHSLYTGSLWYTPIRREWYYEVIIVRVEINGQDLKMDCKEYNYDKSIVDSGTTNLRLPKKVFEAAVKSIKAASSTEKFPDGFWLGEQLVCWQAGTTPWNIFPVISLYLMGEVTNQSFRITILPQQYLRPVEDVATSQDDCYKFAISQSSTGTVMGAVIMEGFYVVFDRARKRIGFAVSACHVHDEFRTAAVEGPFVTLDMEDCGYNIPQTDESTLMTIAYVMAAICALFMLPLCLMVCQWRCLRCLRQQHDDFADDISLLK
Sequence of UniProt Q12908 (whole entry, looked up): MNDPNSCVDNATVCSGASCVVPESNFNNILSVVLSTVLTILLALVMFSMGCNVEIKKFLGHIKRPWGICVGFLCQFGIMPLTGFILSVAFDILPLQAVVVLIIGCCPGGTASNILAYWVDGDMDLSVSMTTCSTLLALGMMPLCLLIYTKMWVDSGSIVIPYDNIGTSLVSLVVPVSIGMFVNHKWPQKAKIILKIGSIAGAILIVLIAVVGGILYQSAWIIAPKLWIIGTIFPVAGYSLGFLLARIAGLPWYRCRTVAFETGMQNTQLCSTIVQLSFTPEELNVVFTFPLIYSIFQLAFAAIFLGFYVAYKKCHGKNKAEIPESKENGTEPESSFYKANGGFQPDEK
Sequence of UniProt P55210 (whole entry, looked up): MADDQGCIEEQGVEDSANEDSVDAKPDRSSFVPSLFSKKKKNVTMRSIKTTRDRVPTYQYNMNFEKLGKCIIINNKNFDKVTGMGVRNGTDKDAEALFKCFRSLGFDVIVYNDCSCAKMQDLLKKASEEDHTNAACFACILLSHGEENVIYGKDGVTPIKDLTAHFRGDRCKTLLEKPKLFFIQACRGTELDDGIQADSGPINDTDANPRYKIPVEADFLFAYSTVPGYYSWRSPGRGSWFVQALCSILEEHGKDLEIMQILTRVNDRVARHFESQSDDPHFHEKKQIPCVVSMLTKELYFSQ
Sequence of UniProt P69905 (whole entry, looked up): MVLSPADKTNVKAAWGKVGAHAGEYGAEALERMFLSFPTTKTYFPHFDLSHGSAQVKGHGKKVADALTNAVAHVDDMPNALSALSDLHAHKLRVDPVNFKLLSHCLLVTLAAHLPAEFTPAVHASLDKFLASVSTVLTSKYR

Compound | target | assay | system | setting | how to read | endpoint | result
c1ccc(Nc2c3c(nc4ccccc24)CCCC3)cc1 | ache | enzyme activity, inhibitor, Ellman |  | 50 µM |  | inhibition | 12.7%
CC(C)C[C@H](NC(=O)/C=C/c1ccc(OP(=O)(O)O)cc1)C(=O)N1CCC[C@H]1C(=O)NC/C=C/C(N)=O | Signal transducer and activator of transcription 3, SH2 domain (STAT3, Homo sapiens, UniProt P40763) | fluorescence polarization |  | concentration not given | baseline: Aba analogue | affinity reduction | ~2 fold
CCCCCCCCCCCCCCCc1ccc(COP(O)(O)=S)cc1 | Autotaxin (ENPP2, Homo sapiens, UniProt Q13822) | inhibitor |  | 10 µM, 2 h, together with: FS-3 1 µM | baseline: control | remaining activity | 15.2%
CCN(Cc1ccccc1)C(=O)CCc1nc(CN2CCN(C(=O)Cc3ccc(OC)c(OC)c3)CC2)no1 | Sodium channel protein type 11 subunit alpha (Scn11a, Rattus norvegicus, UniProt O88457) | whole-cell patch clamp | rat DRG neurons | 300 nM |  | V1/2 of activation | -39.6 ± 1.43 mV
CC1(CCN2CCc3ccccc3C2)Cc2cc(Cl)ccc2C1=O (single isomer, unassigned) | 5-hydroxytryptamine receptor 7 (HTR7, Homo sapiens, UniProt P34969) | β-arrestin recruitment, agonist |  |  |  | Emax | 43.2%
O=C(O)/C=C/c1ccc(O)cc1 | alpha-amylase | enzyme activity, DNS |  | 125 µg/mL |  | inhibition | 59.2 ± 2.5%
O=C1SCCC1NC(C(=O)NCc1ccccc1)C1CC1 (stereo not shown) | Thiosulfate sulfurtransferase (TST, Homo sapiens, UniProt Q16762) | substrate affinity change, activator, steady-state kinetics |  |  |  | alpha factor | 6.2
C[C@]12CC[C@@H]3c4ccc(O)c(Cl)c4CC[C@H]3[C@@H]1CCC2=O | Aldo-keto reductase family 1 member C1 (AKR1C1, Homo sapiens, UniProt Q04828) | enzyme activity, inhibitor, absorbance |  | 100 µM, pH 9 |  | inhibition | 80%
CC(C)CC(NC(=O)C(NC(=O)NC(C(=O)O)C(C)C)C1CCNC(=N)N1)C(=O)NCCCNC(C(=O)O)C(OC1OC(CN)C(O)C1O)C1OC(n2ccc(=O)[nH]c2=O)C(O)C1O (stereo not shown) | Phospho-N-acetylmuramoyl-pentapeptide-transferase (mraY, Aquifex aeolicus, UniProt O66465) | isothermal titration calorimetry |  | concentration not given, wild type, without Mg2+ |  | binding stoichiometry | 0.65 ± 0.05
CC(CCC(=O)NC(CCC(=O)Nc1cccnc1)C(=O)O)C1CCC2C3C(O)CC4CC(O)CCC4(C)C3CCC12C (stereo not shown) | Ileal sodium/bile acid cotransporter (SLC10A2, Homo sapiens, UniProt Q12908) | transport, substrate, LC-MS/MS | ASBT-MDCK cells |  |  | Kt | 1.06 µM
CCN1CCN(C2=Nc3cc(Cl)ccc3Nc3ccccc32)CC1 | Muscarinic acetylcholine receptor M3 (CHRM3, Homo sapiens, UniProt P20309, A239G/Y149C) | calcium signal, agonist, FLIPR |  |  | baseline: clozapine N-oxide | Emax | 91%
CC(C)C[C@H](NC(=O)CNC(=O)[C@@H](NC(=O)[C@H](CO)NC(=O)[C@H](CCCCN)NC(=O)[C@H](CC(C)C)NC(=O)C1(NC(=O)[C@H](CCC(=O)O)NC(=O)[C@H](CC(C)C)NC(=O)[C@@H](N)C(C)C)CC(C)(C)N([O])C(C)(C)C1)C(C)C)C(=O)N[C@@H](Cc1ccccc1)C(=O)O | Rhodopsin, photoactivated (Meta II) (RHO, Bos taurus, UniProt P02699) | dissociation from R*, EPR |  |  |  | half-life | 8 min
Cc1cc(Nc2nc(C[C@@]3(C(=O)O)CCN(Cc4cccc(Cl)c4F)[C@H](C)C3)cc(C)c2F)[nH]n1 | Aurora kinase C (AURKC, Homo sapiens, UniProt Q9UQB9) | Western blot | NCI-H446 | up to 2 µM |  | phosphorylation inhibition | no inhibition
CC[C@H](C)[C@H](NC(=O)[C@H](CCC(N)=O)NC(=O)[C@H](CC(C)C)NC(=O)[C@@H](NC(=O)CNC(=O)[C@H](Cc1ccc(O)cc1)NC(=O)[C@H](CC(=O)O)NC(=O)[C@@H](NC(=O)[C@H](CO)NC(=O)CNC(=O)[C@H](CC(=O)O)NC(=O)[C@@H](NC(=O)[C@H](CC(N)=O)NC(=O)[C@H](CCCNC(=N)N)NC(=O)[C@H](CC(N)=O)NC(=O)[C@@H](NC(=O)[C@H](C)NC(=O)[C@H](CCC(N)=O)NC(=O)[C@@H](NC(=O)[C@H](CC(N)=O)NC(=O)[C@H](Cc1ccccc1)NC(=O)[C@H](CC(N)=O)NC(=O)[C@H](CO)NC(=O)[C@H](CCC(=O)O)NC(=O)[C@H](Cc1ccccc1)NC(=O)[C@H](CCCCN)NC(=O)[C@H](C)NC(=O)[C@H](C)NC(=O)[C@H](CO)NC(=O)[C@@H](NC(=O)[C@H](Cc1c[nH]c2ccccc12)NC(=O)[C@H](CC(N)=O)NC(=O)CNC(=O)[C@H](CC(C)C)NC(=O)[C@H](CO)NC(=O)[C@H](Cc1ccc(O)cc1)NC(=O)CNC(=O)[C@H](CCCNC(=N)N)NC(=O)[C@H](Cc1ccc(O)cc1)NC(=O)[C@H](CC(N)=O)NC(=O)[C@@H](N)CC(=O)O)C(C)C)[C@@H](C)O)[C@@H](C)O)[C@@H](C)O)[C@@H](C)O)[C@@H](C)CC)C(=O)O | Periplasmic serine endoprotease DegP (degP, Escherichia coli, UniProt P0C0V0, C83S/C95S/N322C) | FRET |  |  |  | maximal assembly rate constant | 5.3 ± 0.2 min⁻¹
COc1cc(C=O)ccc1OCc1cccc(CO)n1 | Hemoglobin subunit alpha, with beta chain (HBA1, Homo sapiens, UniProt P69905) | binding |  | low concentration |  | time to equilibrium | 12 to 20 h
C[C@@H](NC(=O)[C@H](Cc1ccccc1)NC(=O)[C@@H](CCCNC(=N)N)NC(=O)[C@H](CCCN)NC(=O)[C@@H]1CNC(=O)c2cc3cc(c2)C(=O)N[C@H](Cc2ccc4ccccc4c2)C(=O)N[C@@H](CO)C(=O)N[C@@H](CC(N)=O)C(=O)N[C@H](Cc2ccc4ccccc4c2)C(=O)N[C@@H](c2ccccc2)C(=O)N[C@@H](CCCCNC3=O)C(=O)N[C@H](Cc2ccccc2)C(=O)N[C@@H](CCC(N)=O)C(=O)N[C@H](CCCNC(=N)N)C(=O)N[C@@H](CCCNC(=N)N)C(=O)N1)C(=O)NCCOCCOCC(=O)NCCOCCOCC(=O)N[C@@H](CCCCNC(=O)c1ccc2c(c1)C(=O)OC21c2ccc(O)cc2Oc2cc(O)ccc21)C(N)=O | Tyrosine-protein phosphatase non-receptor type 1 (PTPN1, Homo sapiens, UniProt P18031) | fluorescence polarization |  | concentration not given |  | binding | no binding

Compound | target | assay | system | setting | how to read | endpoint | result
Cn1cc(-c2cccc(CN3CCC4(CC3)COc3c4ccc4c3CN([C@H]3CCC(=O)NC3=O)C4=O)c2)cn1 | Ikzf2/Crbn (Mus musculus, UniProt P81183+Q8C7D2, I391V) |  | mouse Crbn I391V, thymus | oral, 100 mg/kg single dose, 6 h |  | degradation | 73%
NS(=O)(=O)c1cc(Cl)sc1C(=O)O | Beta-lactamase (ampC, Escherichia coli K-12, UniProt P00811) |  |  |  |  | ligand efficiency | 0.29
O=C(O)COc1ccc(Cl)cc1 | Chloride channel protein (Torpedo marmorata, UniProt P21564, C212S) | single-channel current, noise analysis |  | 20 mM, -80 mV |  | lower corner frequency | 2.3 Hz
Cn1ccc(-c2ccc(Cn3cc(C(=O)N[C@H]4CCCC[C@@H]4O)c4c(F)cc(F)cc43)cn2)n1 | Muscarinic acetylcholine receptor M1 (CHRM1, Homo sapiens, UniProt P11229) | calcium mobilization, agonist | CHO cells |  | baseline: ACh maximum | maximum response | 48 ± 12%
CC(C)C[C@H](NC(=O)[C@H](CO)NC(=O)[C@H](Cc1ccc(O)cc1)NC(=O)CNC(=O)[C@H](CCCNC(=N)N)NC(=O)[C@H](Cc1ccc(O)cc1)NC(=O)[C@H](CC(N)=O)NC(=O)[C@@H](N)CC(=O)O)C(=O)NCC(=O)N[C@@H](CC(N)=O)C(=O)N[C@@H](Cc1c[nH]c2ccccc12)C(=O)N[C@H](C(=O)N[C@@H](CO)C(=O)N[C@@H](C)C(=O)N[C@@H](C)C(=O)N[C@@H](CCCCN)C(=O)N[C@@H](Cc1ccccc1)C(=O)N[C@@H](CCC(=O)O)C(=O)N[C@@H](CO)C(=O)N[C@@H](CC(N)=O)C(=O)O)C(C)C | Periplasmic serine endoprotease DegP (degP, Escherichia coli, UniProt P0C0V0) | reporter cleavage, activator |  | together with: protease 1 µM, reporter 100 µM |  | concentration for maximal activation | 100 to 200 µM
CC(=O)N[C@@H](CC(C)C)C(=O)N[C@@H](CCC(=O)O)C(=O)N[C@@H](Cc1c[nH]cn1)C(=O)N[C@@H](CC(=O)O)C(=O)Nc1ccc2c(C)cc(=O)oc2c1 | Caspase-7 (CASP7, Homo sapiens, UniProt P55210) | substrate cleavage, substrate, fluorogenic AMC release |  | enzyme 0.25 activity units/µL |  | Vmax | 139 ± 12.5 RFU/min
C[C@]1(COC(=O)Cc2ccc(O)c(O)c2)[C@H](C(=O)O)N2C(=O)/C(=C/c3ccccn3)[C@H]2S1(=O)=O | Beta-lactamase OXA-23 (OXA-23, Acinetobacter baumannii, UniProt Q9L4P2) | enzyme activity, inhibitor, absorbance |  |  |  | kinact/KI | 140000 M⁻¹ s⁻¹
O=C(/C=C/c1ccc(Cl)cc1)c1ccc(N2CCNCC2)cc1 | Beta-secretase 1 (BACE1, Homo sapiens, UniProt P56817) | enzyme activity, inhibitor, fluorescence |  | 10 µM |  | remaining activity | 40.3%
CC(=O)N[C@H]1[C@H](O[C@H]2[C@H](O[C@H](C)C(=O)N[C@@H](C)C(=O)N[C@H](CCC(=O)N[C@@H](CCCCNC(=O)OCCCCCCNC(=S)Nc3ccc(NS(=O)(=O)c4cccc5c(N(C)C)cccc45)cc3)C(=O)N[C@H](C)C(=O)N[C@H](C)C(=O)O)C(=O)O)[C@@H](NC(C)=O)[C@@H](OP(=O)(O)OP(=O)(O)OC/C=C(/C)CC/C=C(/C)CC/C=C(/C)CC/C=C(/C)CC/C=C(/C)CC/C=C(/C)CC/C=C(/C)CC/C=C(/C)CC/C=C(\C)CC/C=C(\C)CCC=C(C)C)O[C@@H]2CO)O[C@H](CO)[C@@H](O)[C@@H]1O | UDP-N-acetylglucosamine--N-acetylmuramyl-(pentapeptide) pyrophosphoryl-undecaprenol N-acetylglucosamine transferase (murG, Mycolicibacterium smegmatis, UniProt A0R016) | substrate | P-60 membrane fraction |  |  | Vmax | 0.98 µM/min
CC1CN1c1cc(O)c2nc(N)sc2c1 (stereo not shown) | Histone-lysine N-methyltransferase NSD3, SET domain (NSD3, Homo sapiens, UniProt Q9BZ95) | mass spectrometry | NSD3 SET domain 1 µM | 10 µM, 18 h, 32 °C |  | covalent engagement | 33%
CC(C)P(=S)(NP(=S)(C(C)C)C(C)C)C(C)C | Alpha-amylase (Bacillus subtilis, UniProt P00691) | binding, FRET |  | 298 K |  | donor–acceptor distance | 2.38 nm
Cc1c(-c2cccc(C3=NCCN3)c2)oc(-c2cccc(C3=NCCN3)c2)c1C | androgen receptor promoter G-quadruplex DNA | G-quadruplex stabilisation, FRET melting |  | 1 µM |  | ΔTm | 15.4 °C
Cc1nc(-c2ccc(Cl)cc2)nc2sc3c(=O)n(CCN4CCOCC4)cnc3c12 | ache | peripheral site binding |  | 1 µM |  | propidium displacement | 25%
C[C@H](NC(=O)[C@@H]1CNC(=O)C[C@@H](NC(=O)[C@H](Cc2ccccc2)NC(=O)CNC(=O)CNC(=O)[C@H](Cc2ccc(O)cc2)NCc2ccccc2)C(=O)N[C@@H](CCCNC(=N)N)C(=O)N[C@@H](CCCNC(=N)N)C(=O)N1)C(=O)N1CCC[C@H]1C(=O)N[C@@H](CCCCN)C(N)=O | Oprk1 | binding |  |  | baseline: zyklophin | affinity fold decrease | ≤ 2 fold
CC(=O)NCC(=O)N(C)[C@@H](Cc1ccccc1)C(=O)N[C@@H](Cc1ccccc1)C(=O)N[C@@H](Cc1c[nH]c2ccccc12)C(=O)N[C@@H](CCCNC(=N)N)C(=O)N[C@@H](CC(C)C)C(=O)N[C@@H](CCCNC(=N)N)C(=O)N[C@@H](CCCNC(=N)N)C(=O)N[C@H](C)C(=O)N[C@@H](CCCNC(=N)N)C(=O)N1CCC[C@H]1C(=O)N[C@@H](CCCCN)C(N)=O | Oprk1 | agonist | CHO cells | 10 µM | baseline: dynorphin A(1-13) amide | adenylyl cyclase activity | 83 ± 7%

Some of these lines once more:
Compound | target | assay | system | setting | how to read | endpoint | result
CC(=O)N[C@@H](CC(C)C)C(=O)N[C@@H](CCC(=O)O)C(=O)N[C@@H](Cc1c[nH]cn1)C(=O)N[C@@H](CC(=O)O)C(=O)Nc1ccc2c(C)cc(=O)oc2c1 | Caspase-7 (CASP7, Homo sapiens, UniProt P55210) | substrate cleavage, substrate, fluorogenic AMC release |  | enzyme 0.25 activity units/µL |  | Vmax | 139 ± 12.5 RFU/min
C[C@@H](NC(=O)[C@H](Cc1ccccc1)NC(=O)[C@@H](CCCNC(=N)N)NC(=O)[C@H](CCCN)NC(=O)[C@@H]1CNC(=O)c2cc3cc(c2)C(=O)N[C@H](Cc2ccc4ccccc4c2)C(=O)N[C@@H](CO)C(=O)N[C@@H](CC(N)=O)C(=O)N[C@H](Cc2ccc4ccccc4c2)C(=O)N[C@@H](c2ccccc2)C(=O)N[C@@H](CCCCNC3=O)C(=O)N[C@H](Cc2ccccc2)C(=O)N[C@@H](CCC(N)=O)C(=O)N[C@H](CCCNC(=N)N)C(=O)N[C@@H](CCCNC(=N)N)C(=O)N1)C(=O)NCCOCCOCC(=O)NCCOCCOCC(=O)N[C@@H](CCCCNC(=O)c1ccc2c(c1)C(=O)OC21c2ccc(O)cc2Oc2cc(O)ccc21)C(N)=O | Tyrosine-protein phosphatase non-receptor type 1 (PTPN1, Homo sapiens, UniProt P18031) | fluorescence polarization |  | concentration not given |  | binding | no binding
